Experimental data pooled from the literature.
Protocols differ between the studies behind these lines.

For `CCOC(=O)c1cc2cc(-c3cc(C(=O)NCc4ccc(C(=O)O)cc4)nn3C)ccc2[nH]1`, the Papp was 3.3 ×10⁻⁶ cm/s (PAMPA).
The Papp of `C/C=C/CNC(=N)NCCCCCCCCN1CCCc2ccc(F)cc2COc2ccccc2CNC(=N)NC1=O` is reported as under 0.01 ×10⁻⁶ cm/s (PAMPA; 500 µM, 5 h, pH 7.4).
For `[2H]c1c(NS(C)(=O)=O)c([2H])c2c(C(=O)c3ccc(OCCCN(CCCC)CCCC)cc3)c(CCCC)oc2c1[2H]`, the Papp was 4.08 ×10⁻⁶ cm/s (PAMPA; 16 h, pH 7.4).
`O=C(NCc1ccc2c(c1)OCO2)c1ccnc(C(=O)NCc2ccc3c(c2)OCO3)c1` has a Papp of 0.3 ×10⁻⁶ cm/s (PAMPA).
The Papp of `C/C=C/CNC(=N)NCCCCCCCCN1CCCCCCOc2ccccc2CNC(=N)NC1=O` is reported as under 0.01 ×10⁻⁶ cm/s (PAMPA; 500 µM, 5 h, pH 7.4).
`O=C(c1ccccc1)c1cc(O)c(-c2cc(Cl)cc(Cl)c2)c(O)c1` gave a Papp of 9.55 ×10⁻⁶ cm/s (PAMPA; 18 h, pH 7.4).
The Papp of `CCN(c1nc(N[C@H](CC(N)=O)C(=O)NC)nc(N2CCN(c3ccccc3C#N)CC2)n1)C1CCCCC1` is reported as 2.1 ×10⁻⁶ cm/s (PAMPA).
The Papp of `CC(C)(O)c1ccc(N2Cc3c(ccnc3-c3ccc(F)cc3OCC(F)(F)F)C2=O)cc1` is reported as 24.7 ×10⁻⁶ cm/s (PAMPA; pH 7.4).
For `NS(=O)(=O)NCC(F)(F)c1ccccc1F`, the Papp was 50 ×10⁻⁶ cm/s (Caco-2).

A few entries again:
The Papp of `CC(C)(O)c1ccc(N2Cc3c(ccnc3-c3ccc(F)cc3OCC(F)(F)F)C2=O)cc1` is reported as 24.7 ×10⁻⁶ cm/s (PAMPA; pH 7.4).
